# Assay results from different studies.
# Each line is one published result; not all experiments were run side by side. Numbers after ± are the reported error.
Compound,target or system,assay,test system,setting,scale,quantity,value
C=CC(=O)N1[C@@H](c2ccc3c(c2)OCO3)c2[nH]c3ccccc3c2C[C@H]1C(=O)N1CCN(C)CC1,human cyclin E1 N112C-3xFLAG:CDK2,"co-IP with TMT proteomics, item: TUBB",,"concentration not given, P07437",reference: wild type DMSO,relative co-enrichment,124%
C[n+]1cc(NC(=O)c2ccc3ccc4ccc(C(=O)Nc5cc6ccccc6[n+](C)c5)nc4c3n2)cc2ccccc21,G-quadruplex DNA myc22 parallel,UV melting,,"6 µM, K10 buffer, with: DNA 3 µM",,delta Tm,1.2 °C
COC1CN([C@H]2CC[C@H]([C@@]3(C)Oc4c(Cl)cc(C(=O)NCc5c(SC)cc(C)[nH]c5=O)c(C)c4O3)CC2)C1,,"RNA-seq, item: PLEKHH2 mouse homolog","mouse, HT-1376 xenograft, whole blood",dose not given,reference: vehicle,log2 fold change,4.8
CC[n+]1cccc2cc(/C=N/NC(=O)c3ccc4ccc(C(=O)N/N=C/c5ccc6c(ccc[n+]6CC)c5)nc4n3)ccc21,22CTA telomeric G4-DNA antiparallel,FRET melting,,"1 µM, K10 buffer, DNA 0.2 µM",,ΔTm,15.9 ± 0.3 °C
O=C(NCc1cccc(Cl)c1)c1ccc([C@H]2[C@@H](F)[C@@H](F)C[C@@H](F)[C@H]2F)cc1,,liver microsome stability,mouse liver microsomes,1 µM,,hepatic clearance,44 mL/min/kg
CNS(=O)(=O)Nc1nccc(Cc2c(C)c3ccc(Oc4ncccc4F)cc3oc2=O)c1F,OVSAHO,cell viability,,7 days,,IC50,> 1 µM
CN1CCCNC(=O)c2cccc(c2)C(=O)NCCCN(C)CCCNc2cccc3c2C(=O)c2cccc(c2C3=O)NCCC1,SAS,"RNA-Seq, item: DDX50 mRNA",,"1 µM, 6 h",reference: untreated cells,log2 fold change,-0.719
CCN(CC)CC(=O)Nc1cccc(-n2cc(-c3ccc4ccc(-c5cn(-c6cccc(NC(=O)CN(CC)CC)c6)nn5)cc4c3)nn2)c1,RCC4,"PCR angiogenesis array, item: CXCL1",,"5 x IC50, 6 h, normoxia",reference: untreated,fold regulation,-2.18
O=C(NCCO)c1ccc([C@H]2[C@@H](F)[C@@H](F)C[C@@H](F)[C@H]2F)cc1,,hepatocyte stability,cryopreserved human hepatocytes,1 µM,,hepatic clearance,6.2 mL/min/kg
CO[C@@H]1[C@@H](OC(N)=O)[C@@H](O)[C@H](Oc2ccc3c(O)c(NC(=O)c4ccc(O)c(CC=C(C)C)c4)c(=O)oc3c2C)OC1(C)C,HCT-116 BRCA2 wild-type,,,"300 µM, replicate B",reference: untreated,colony survival,0.455%
C[n+]1ccc(/C=N/NC(=O)c2cccc(C(=O)N/N=C/c3cc[n+](C)c4ccccc34)c2)c2ccccc21,22CTA telomeric G4-DNA antiparallel,FRET melting,,"1 µM, K10 buffer, DNA 0.2 µM, with: ds26 10 µM",,ΔTm,7 ± 0.3 °C
Nc1ncc(-c2cc(-c3cnn(CC(F)(F)F)c3)ncc2F)nc1C(=O)NC1CNCC(F)C1 (stereo not drawn),FES,KINOMEscan,,1 µM,reference: DMSO control,remaining binding,100%
C=CC(=O)Nc1cccc(Cn2ncc3cnc(Nc4cnn(CCOC)c4)nc32)c1,DYRK1A human,"binding, KINOMEscan",,100 nM,lower = stronger binding,percent of control,100%
CC[n+]1cccc2cc(/C=N/NC(=O)c3cncc(C(=O)N/N=C/c4ccc5c(ccc[n+]5CC)c4)n3)ccc21,22CTA telomeric G4-DNA antiparallel,FRET melting,,"1 µM, K10 buffer, DNA 0.2 µM, with: ds26 10 µM",,ΔTm,13.5 ± 0.3 °C
Cc1ncsc1-c1ccc(C(C)NC(=O)C2CC(O)CN2C(=O)C(NC(=O)CCCCCCCCCCN2CCCC(Nc3ncc(Cl)c(Nc4ccccc4S(=O)(=O)C(C)C)n3)C2)C(C)(C)C)cc1 (stereo not drawn),22Rv1,"RNA-seq, item: SYTL2 mRNA",,concentration not given,reference: DMSO,log2 fold change,-1.59

# Some of these lines once more:
Compound,target or system,assay,test system,setting,scale,quantity,value
COC1CN([C@H]2CC[C@H]([C@@]3(C)Oc4c(Cl)cc(C(=O)NCc5c(SC)cc(C)[nH]c5=O)c(C)c4O3)CC2)C1,,"RNA-seq, item: PLEKHH2 mouse homolog","mouse, HT-1376 xenograft, whole blood",dose not given,reference: vehicle,log2 fold change,4.8
